# Published values from different studies.
# Several values in a cell are separate wells, animals, samples, runs or records. Numbers after ± are the reported error.
# Organism: Plasmodium falciparum
SMILES,test,test system,setting,IC50
O=C1C(O)=C([C@H]2CC[C@H](c3ccc(Cl)cc3)CC2)C(=O)c2ccccc21,growth,3D7,96 h,3 ± 3 nM
C[C@H](O)C(=O)CCCCCCC(=O)Nc1ccccc1,[3H]-hypoxanthine incorporation,,,> 100000 nM
C[C@@H]1CC[C@H]2[C@@H](C)C(=O)O[C@@H]3O[C@@]4(C)CC[C@@H]1[C@]32OO4,"parasite growth, [3H]hypoxanthine incorporation",K1,erythrocytic stages,3.5 nM
N=C(CC(O)c1ccnc2c1ccc1ccccc12)Nc1ccc(F)cc1 (centres unmarked),"parasite growth, HRP2 ELISA","3D7, asexual blood stages",3 days,207 ± 66.4 nM
CC(C)(C)NC(=O)[C@@H]1CN(Cc2cnc3occc3c2)CCN1C[C@@H](O)C[C@@H](Cc1ccccc1)C(=O)N[C@H]1c2ccccc2C[C@H]1O,"parasite growth, inhibitor, SYBR Green I",3D7,,629 nM
CCCCCNC[C@H](O)c1cc(Cl)cc2c1-c1ccc(Cl)cc1C2,,3D7,48 h,3.3 ± 0.4 nM
CC1=C(Cc2cn(CCN3CCN(C(=O)OC(C)(C)C)CC3)nn2)C(=O)c2ccccc2C1=O,"parasite growth, [3H]hypoxanthine incorporation",NF54,72 h,465 nM
O[C@@H](CN[C@H](COCC1CC1)Cc1ccccc1)c1cc(Cl)cc2c1-c1ccc(Cl)cc1C2,,3D7,48 h,19.1 ± 9.9 nM
CCOc1ccc(-c2nc(CNCCc3ccc(F)cc3)cs2)cc1,"parasite growth, inhibitor, SYBR Green I",3D7,,20700 nM
CCC1=C(CC)/C(=C/NC23C[C@H]4C[C@@H](C2)C[C@@H](C3)C4)N=C1c1ccc(C)[nH]1,"parasite growth, SYBR Green I fluorescence","D6, chloroquine-sensitive",72 h,< 1 nM
O=C(CC1NCCCC1O)Cn1cnc2cc(Br)c(Cl)cc2c1=O (centres unmarked),parasite growth,cPRS conditional knockdown line,"72 h, with: 12.5 nM anhydrotetracycline",0.07 nM
CC1(C)N=C(N)N=C(N)N1c1ccc(Cl)cc1,growth,3D7,72 h,8 ± 1 nM
O[C@H](CNCCN1CCN(C(c2ccccc2)c2ccccc2)CC1)c1cc(Cl)cc2c1-c1ccc(Cl)cc1C2,,3D7,48 h,19.5 ± 2 nM
COC1=CC(c2ccc[nH]2)=N/C1=C\c1[nH]c(C)cc1Cc1ccc(OC(F)(F)F)cc1,"parasite growth, SYBR Green fluorescence","Dd2 (multidrug-resistant), asexual blood stage",72 h,1.85 nM
COc1cc(CO)c(-c2ccc3c(c2O)[C@@H](C)N[C@H](C)C3)c2cccc(O)c12,"asexual parasite growth, SYBR Green I","clinical isolate SB_04, Malawi",,2.5 ± 0.11 nM
COc1cc2c(cc1O)[C@@H](Cc1ccc(O)cc1)[N+](C)(C)CC2,"parasite growth, inhibitor, SYBR Green I",3D7,,3940 nM
CC1=C(Cn2ccnc2[N+](=O)[O-])C(=O)c2ccccc2C1=O,"parasite growth, [3H]hypoxanthine incorporation",NF54,72 h,> 10000 nM
CC1=C(C)/C(=C/c2cc(-c3ccc(Cl)cc3)c(C)[nH]2)N=C1c1ccc[nH]1,"parasite growth, SYBR Green fluorescence","Tm90-C2B (atovaquone-resistant), asexual blood stage",72 h,2330 nM
CCCCCCNC[C@@H](O)c1cc(Cl)cc2c1-c1ccc(Cl)cc1C2,,3D7,48 h,2.2 ± 0.2 nM
CCN(CC)Cc1cc(Nc2ccnc3cc(Cl)ccc23)ccc1O,,"3D7, supernatant of treated uninfected erythrocytes","72 h, 500 nM preincubated 0.16 h",3.6 nM
CC1=C(Cc2cn(CCN3CCC(=O)CC3)nn2)C(=O)c2ccccc2C1=O,"parasite growth, [3H]hypoxanthine incorporation",NF54,72 h,2070 nM
CCC1=C(CC)/C(=C/NC23C[C@H]4C[C@@H](C2)C[C@@H](C3)C4)N=C1c1ccc(CC)[nH]1,"parasite growth, SYBR Green I fluorescence","D6, chloroquine-sensitive",72 h,< 1 nM
O=C1Nc2ccc(Cl)cc2C12NCCCCc1c2[nH]c2ccccc12 (centres unmarked),"parasite growth, [3H]hypoxanthine incorporation",NF54,,> 1000 nM
CC1=C(Cn2cc(CO)nn2)C(=O)c2ccccc2C1=O,"parasite growth, [3H]hypoxanthine incorporation",NF54,72 h,> 10000 nM
CCOC1=CC(c2ccc[nH]2)=N/C1=C\c1cc(Cc2ccc(Cl)cc2)c(C)[nH]1,"parasite growth, SYBR Green fluorescence","Tm90-C2B (atovaquone-resistant), asexual blood stage",72 h,7.07 nM
CC1=C(Cc2cn(Cc3ccccc3)nn2)C(=O)c2ccccc2C1=O,"parasite growth, [3H]hypoxanthine incorporation",NF54,72 h,890 nM
CCc1nc(N)nc(N)c1-c1ccc(Cl)cc1,cell growth,"erythrocytes, K1",low-folate medium,2230 ± 330 nM
Cc1ccc(C(=O)Nc2ccc(S(=O)(=O)O)c3cc(S(=O)(=O)O)cc(S(=O)(=O)O)c23)cc1NC(=O)c1cccc(NC(=O)Nc2cccc(C(=O)Nc3cc(C(=O)Nc4ccc(S(=O)(=O)O)c5cc(S(=O)(=O)O)cc(S(=O)(=O)O)c45)ccc3C)c2)c1,"parasite growth, inhibitor, SYBR Green I",3D7,,> 100000 nM
COC1=CC(c2ccc[nH]2)=N/C1=C\c1[nH]c(-c2ccc(OC)cc2)cc1-c1ccc(OC)cc1,"parasite growth, SYBR Green fluorescence","Tm90-C2B (atovaquone-resistant), asexual blood stage",72 h,36.9 nM
Nc1ccc(S(=O)(=O)c2ccc(N)cc2)cc1,cell growth,"erythrocytes, 3D7",low-folate medium,38000 ± 630 nM
COC1=C(OC)/C(=C/c2[nH]c(Cc3ccc(Cl)cc3)cc2Cc2ccc(Cl)cc2)N=C1c1ccc[nH]1,"parasite growth, SYBR Green fluorescence","Tm90-C2B (atovaquone-resistant), asexual blood stage",72 h,> 2500 nM
CCCCN(CCCC)CC(O)c1cc(Cl)cc2c1-c1ccc(Cl)cc1/C2=C/c1ccc(Cl)cc1 (centres unmarked),parasite growth,"Plasmodium falciparum 3D7, 3D7",48 h,7.3 ± 5.4 nM
Cc1[nH]c(/C=C2\N=C(c3ccc[nH]3)C=C2OC(C)C)cc1Cc1ccc(Cl)cc1,"parasite growth, SYBR Green fluorescence","Tm90-C2B (atovaquone-resistant), asexual blood stage",72 h,14.2 nM
CC1=C(Cn2cc(CN3CCOCC3)nn2)C(=O)c2ccccc2C1=O,"parasite growth, [3H]hypoxanthine incorporation",NF54,72 h,> 10000 nM
N=C(N)NCCCCC(=O)Nc1cc(C(F)(F)F)cc(NC(=O)c2cc(C(=O)Nc3cc(C(F)(F)F)cc(NC(=O)CCCCNC(=N)N)c3O[C@@H]3CCNC3)ncn2)c1O[C@@H]1CCNC1,"parasite growth, stage-specific treatment",,"12 h, early to late ring stage",2670 ± 520 nM
CCCCCCCCNCC(O)c1cc(Cl)cc2c1-c1ccc(Cl)cc1C2 (racemic),,3D7,48 h,2.1 ± 0.1 nM
COC1=CC(c2ccc[nH]2)=N/C1=C\c1cc(Cc2ccc(OC(F)(F)F)cc2)c(C)[nH]1,"parasite growth, SYBR Green fluorescence","Dd2 (multidrug-resistant), asexual blood stage",72 h,3.15 nM
CCN(CC)CCCC(C)Nc1ccnc2cc(Cl)ccc12 (centres unmarked),"asexual parasite proliferation, SYBR Green I fluorescence","clinical isolate SB_05, Mozambique",,9.8 ± 0.19 nM
O[C@@H](CN1CCN(C(c2ccccc2)c2ccccc2)CC1)c1cc(Cl)cc2c1-c1ccc(Cl)cc1C2,,3D7,48 h,32.4 ± 10.1 nM
COc1cccc(N2CCN(C3=Nc4c(F)cccc4[C@H](CC(=O)O)N3c3cc(C(F)(F)F)ccc3OC)CC2)c1,"parasite growth, inhibitor, SYBR Green I",3D7,,10800 nM
COC1=CC(c2ccc[nH]2)=N/C1=C\c1[nH]c(-c2ccccc2)cc1-c1ccccc1,"parasite growth, SYBR Green fluorescence","Tm90-C2B (atovaquone-resistant), asexual blood stage",72 h,18.9 nM
CC1(C)N=C(N)N=C(N)N1c1ccc(Cl)cc1,parasite growth,"erythrocytes, 3D7",low-folate medium,4.36 ± 0.24 nM
C[C@@H](c1cc(Cl)cc(Cl)c1)N(C)c1ncc2c(N)nc(N)nc2n1,"parasite growth, inhibitor, SYBR Green I",3D7,,3960 nM
COc1ncnc(NS(=O)(=O)c2ccc(N)cc2)c1OC,cell growth,"erythrocytes, K1",low-folate medium,494000 ± 47000 nM
"COc1cc(C)c(-c2ccc(O)c3c2C[C@@H](C)N[C@@H]3C)c2cccc(O)c12 (single isomer, unassigned)","asexual parasite proliferation, SYBR Green I fluorescence",HB3,,30.3 ± 3.8 nM
CCN(CC)CCCC(C)Nc1ccnc2cc(Cl)ccc12 (centres unmarked),"parasite growth, SYBR Green I",3D7,,17.1 nM and 13.5 nM
O=C(O)/C=C/C=C/c1cccc(Oc2cc(Cl)cc(Cl)c2)c1,"parasite growth, inhibitor, SYBR Green I",3D7,,37200 nM
